Measurements of several laboratories.
Protocols differ between the studies behind these lines. ± marks the error that the study gave.
Cell line: SH-SY5Y

| SMILES | assay | setting | how to read | viability |
| --- | --- | --- | --- | --- |
| CC(C)C[C@H](NC(=O)[C@H](CCCCN)NC(=O)[C@H](CCC(N)=O)NC(=O)[C@H](Cc1c[nH]cn1)NC(=O)C[C@@H]1NC(=O)[C@H](CCCCN)NC1=O)C(=O)N[C@H](C(=O)NCCCC[C@@H]1NC(=O)[C@H](CC(=O)N[C@@H](Cc2ccccc2)C(=O)N[C@@H](Cc2ccccc2)C(=O)N[C@@H](C)C(=O)N[C@@H](CCC(=O)O)C(=O)N[C@@H](CC(=O)O)C(=O)NCCCC[C@@H]2NC(=O)[C@H](CC(N)=O)NC2=O)NC1=O)C(C)C | – | 10 µM, 24 h | baseline: PBS control | ~99% |
| O=C1CCCC2=C1C(c1c[nH]c3ccccc13)n1c(sc(=Cc3c[nH]c4ccccc34)c1=O)=N2 (stereo not shown) | cell growth or viability, MTT | 1 µM | – | 97.7% |
| FC(F)(F)c1ccc(Nc2c3c(nc4ccccc24)CCCC3)cc1 | – | 50 µM, 1 h pretreatment, added: H2O2 | – | 47.6 ± 1.27% |
| COc1ccc([C@@H]2N=NC(NCCc3c[nH]c4ccc(C)cc34)=NC2=O)cc1 | – | 50 µM, 24 h | – | 98.6 ± 0.55% |
| O=c1c(NCCc2ccc(O)cc2)c(NC2CCN(Cc3ccccc3)CC2)c1=O | MTT | 12.5 µM, 24 h | – | 87.3 ± 1.99% |
| CC(=O)N[C@H]1[C@H](Oc2ccc(C[C@H](NC(=O)CN)C(=O)N[C@@H](CCC(=O)O)C(=O)N[C@H](C(=O)N[C@@H](Cc3c[nH]cn3)C(=O)N[C@@H](Cc3c[nH]cn3)C(=O)N[C@@H](CCC(N)=O)C(=O)N[C@@H](CCCCN)C(=O)N[C@@H](CC(C)C)C(=O)N[C@H](C(=O)N[C@@H](Cc3ccccc3)C(=O)N[C@@H](Cc3ccccc3)C(=O)N[C@@H](C)C(N)=O)C(C)C)C(C)C)cc2)O[C@H](CO)[C@H](O)[C@@H]1O | CCK-8 | concentration not given, 24 h | – | not toxic |
| COc1ccc(CNc2c(NC3CCN(Cc4ccccc4)CC3)c(=O)c2=O)cc1 | MTT | 12.5 µM, 24 h | – | 100.6 ± 0.73% |
| CC(C)C[C@H](NC(=O)[C@H](CCCCN)NC(=O)[C@H](CCC(N)=O)NC(=O)[C@H](Cc1c[nH]cn1)NC(=O)C[C@@H]1NC(=O)[C@H](CCCCN)NC1=O)C(=O)N[C@H](C(=O)N[C@@H](Cc1ccccc1)C(=O)N[C@@H](Cc1ccccc1)C(=O)N[C@@H](C)C(=O)N[C@@H](CCC(=O)O)C(=O)N[C@@H](CC(=O)O)C(N)=O)C(C)C | – | 10 µM, 24 h | baseline: PBS control | ~99% |
| O=c1c(NCc2ccccc2)c(NC2CCN(Cc3ccccc3)CC2)c1=O | MTT | 6.25 µM, 24 h | – | 123.6 ± 0.43% |
| Cc1nc(-c2ccc(Cl)cc2)nc2sc3c(=O)n(CCN4CCOCC4)cnc3c12 | – | 50 µM, 24 h | – | 94.8 ± 0.49% |

Some of these lines once more:
| SMILES | assay | setting | how to read | viability |
| --- | --- | --- | --- | --- |
| CC(C)C[C@H](NC(=O)[C@H](CCCCN)NC(=O)[C@H](CCC(N)=O)NC(=O)[C@H](Cc1c[nH]cn1)NC(=O)C[C@@H]1NC(=O)[C@H](CCCCN)NC1=O)C(=O)N[C@H](C(=O)NCCCC[C@@H]1NC(=O)[C@H](CC(=O)N[C@@H](Cc2ccccc2)C(=O)N[C@@H](Cc2ccccc2)C(=O)N[C@@H](C)C(=O)N[C@@H](CCC(=O)O)C(=O)N[C@@H](CC(=O)O)C(=O)NCCCC[C@@H]2NC(=O)[C@H](CC(N)=O)NC2=O)NC1=O)C(C)C | – | 10 µM, 24 h | baseline: PBS control | ~99% |
